Experimental data gathered from unrelated publications.
Each numbered part is a random draw from the data of one study; scales do not carry over between parts. Positions count from the first letter of the parent shown.

Series 1
Target: CCND1, cyclin fold, Cln2 fusion (human)
Method: yeast growth competition, sequencing
Matrix: yeast
Notes: strong parent motif
Baseline: not given
Reading: higher = stronger binding
Starting sequence: viral docking peptide; YKVKRRLVFGADD; partner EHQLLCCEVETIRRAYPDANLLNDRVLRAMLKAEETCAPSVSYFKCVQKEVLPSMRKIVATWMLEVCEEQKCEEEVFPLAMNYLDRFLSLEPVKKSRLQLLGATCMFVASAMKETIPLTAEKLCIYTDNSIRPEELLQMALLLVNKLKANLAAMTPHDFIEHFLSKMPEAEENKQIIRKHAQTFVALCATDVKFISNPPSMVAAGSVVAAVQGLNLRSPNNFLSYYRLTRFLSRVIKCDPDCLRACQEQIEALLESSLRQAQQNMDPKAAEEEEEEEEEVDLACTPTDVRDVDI
Under “normalised enrichment score”, `YKVKRRLVFGAID [D12I]` is recorded as 0.861.
`YKVDRRLVFGADD [K4D]` — result for “normalised enrichment score”: 0.173.
`YMVKRRLVFGADD [K2M]` — result for “normalised enrichment score”: 1.82.
`YKVKCRLVFGADD [R5C]`: “normalised enrichment score” 0.514.
`YKVKRRLVFGACD [D12C]` — result for “normalised enrichment score”: 0.973.
Under “normalised enrichment score”, `YKVCRRLVFGADD [K4C]` is recorded as 4.27.
Under “normalised enrichment score”, `YKVKRRLVFGAWD [D12W]` is recorded as 0.37.
Under “normalised enrichment score”, `YKVKRRLVRGADD [F9R]` is recorded as -0.538.
`YKVKRRLVFGAHD [D12H]` — result for “normalised enrichment score”: 0.594.
`YKKKRRLVFGADD [V3K]` — result for “normalised enrichment score”: 0.122.
`YKVFRRLVFGADD [K4F]` — result for “normalised enrichment score”: 0.0714.
Under “normalised enrichment score”, `YDVKRRLVFGADD [K2D]` is recorded as 1.78.
`YKVKRRLDFGADD [V8D]`: “normalised enrichment score” 4.71.
`YKVKRRLVFGFDD [A11F]`: “normalised enrichment score” 1.48.
`YKVKRRLVFGKDD [A11K]`: “normalised enrichment score” 1.18.
For `YKVKRRLVDGADD [F9D]`, “normalised enrichment score” read 0.253.
`YKVKRRLVFGAKD [D12K]`: “normalised enrichment score” 0.462.
Under “normalised enrichment score”, `YKVKRRLVFYADD [G10Y]` is recorded as 1.03.

Series 2
Target: Prothrombin, mature alpha-thrombin (F2, Homo sapiens, UniProt P00734)
Method: aptamer microarray, sandwich
Form: DNA with 2'F-ANA
Matrix: in vitro
Concentration: 200 nM
Notes: whole 15-mer aptamer, many near background
Added: Cy3 exosite-II aptamer, 400 nM
Reading: higher = stronger binding
Sequence: GGTTGGTGTGGTTGG
`2'F-ANA at 3 4 5 6 7 8 10 11 15` — result for “mean fluorescence intensity”: 56.2 a.u.
`2'F-ANA at 2 6 7 9` — result for “mean fluorescence intensity”: 325 a.u.
Under “mean fluorescence intensity”, `2'F-ANA at 1 4 6 7 8` is recorded as 148 a.u.
For `2'F-ANA at 1 4 8 9`, “mean fluorescence intensity” read 155 a.u.
For `2'F-ANA at 1 3 4 6 7 8 10 12 15`, “mean fluorescence intensity” read 81.8 a.u.
`2'F-ANA at 1 3 4 7 8 9 11 14` — result for “mean fluorescence intensity”: 70.9 a.u.
For `2'F-ANA at 1 2 3 6 8 10 12 13 15`, “mean fluorescence intensity” read 86.1 a.u.
For `2'F-ANA at 1 4 7 9 11 12 13`, “mean fluorescence intensity” read 142 a.u.

Series 3
Substitution: V62H
Target: ABI1, truncated, D143A, DHFR fusion (Arabidopsis thaliana)
Method: DHFR PCA, deep sequencing
Matrix: yeast
Notes: methotrexate growth selection, single substitutions
Baseline: wild-type fitted maximum
Reading: higher = stronger binding
Starting sequence: PYL1, truncated, DHFR fusion (Arabidopsis thaliana); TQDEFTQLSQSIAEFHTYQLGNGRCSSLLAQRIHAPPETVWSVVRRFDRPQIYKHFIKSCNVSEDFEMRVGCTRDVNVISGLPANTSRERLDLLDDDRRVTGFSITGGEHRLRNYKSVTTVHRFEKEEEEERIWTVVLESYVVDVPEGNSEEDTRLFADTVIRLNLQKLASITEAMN; partner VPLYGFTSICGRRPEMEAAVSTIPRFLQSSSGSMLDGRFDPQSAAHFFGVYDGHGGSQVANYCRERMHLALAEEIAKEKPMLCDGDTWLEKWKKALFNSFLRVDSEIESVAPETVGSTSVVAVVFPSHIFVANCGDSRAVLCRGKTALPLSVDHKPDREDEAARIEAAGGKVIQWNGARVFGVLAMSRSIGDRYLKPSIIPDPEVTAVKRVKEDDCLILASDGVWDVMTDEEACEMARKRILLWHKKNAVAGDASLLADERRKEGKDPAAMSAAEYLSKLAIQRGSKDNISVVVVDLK
added: (+)-ABA 0.032 µM — “relative binding score”: 0.249%.
added: (+)-ABA 200 µM — “relative binding score”: 72.1%.
The “relative binding score” was 85.3% (added: (+)-ABA 710 µM).
For added: (+)-ABA 2500 µM: “relative binding score” read 80.5%.
added: (+)-ABA 58 µM — “relative binding score”: 36.2%.
The “relative binding score” was -3.84% (added: (+)-ABA 1.4 µM).

Series 4
Target: Transcription factor SOX-2, HMG box (Sox2, Mus musculus, UniProt P48432, residues 41-119)
Sequence of UniProt P48432 (41-119, looked up): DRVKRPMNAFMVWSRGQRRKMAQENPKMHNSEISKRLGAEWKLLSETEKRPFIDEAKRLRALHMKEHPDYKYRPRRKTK
Method: Spec-seq
Form: double-stranded DNA, one strand shown
Matrix: in vitro
Concentration: not given
Notes: whole probe, mean of replicates
Baseline: not given
Reading: lower = stronger binding
All sequences stand within: GAGTCGTCTCGTCAGCAC … CCGTAGAGCACTCAGGTC
`TCTCGTT` — result for “relative binding energy”: 0.769 ln ratio.
For `CATGCTT`, “relative binding energy” read 0.438 ln ratio.
Under “relative binding energy”, `CATCATA` is recorded as 0.189 ln ratio.
`GTTGGTT` — result for “relative binding energy”: 1.16 ln ratio.
`CGGCGTT`: “relative binding energy” 1.64 ln ratio.
`CATTGCG`: “relative binding energy” -0.0972 ln ratio.
For `CATGCCC`, “relative binding energy” read 0.709 ln ratio.
Under “relative binding energy”, `TGTAGTT` is recorded as -0.0698 ln ratio.

Some of these lines once more (series 4):
Under “relative binding energy”, `CATCATA` is recorded as 0.189 ln ratio.
`GTTGGTT` — result for “relative binding energy”: 1.16 ln ratio.
`CGGCGTT`: “relative binding energy” 1.64 ln ratio.
`CATTGCG`: “relative binding energy” -0.0972 ln ratio.
For `CATGCCC`, “relative binding energy” read 0.709 ln ratio.
